{"data": "Measured values pooled from the literature", "note": "Parts stem from different laboratories: compare values within a part only."}
{"data": "Sample 1", "target": "Hepatocyte nuclear factor 3-alpha (Foxa1, Mus musculus, UniProt P35582, residues 1-468, full length assumed)", "method": "EMSA with sequencing", "form": "double-stranded DNA, one strand shown", "sample": "in vitro", "concentration": "10 and 20 nM", "notes": "whole designed probe, mean of two concentrations, ends assumed", "reference": "negative control set to 0", "reading": "higher = stronger binding", "constant ends, left off below": "GTGAGCGGTGCCCATTGATGGGGAAC … TTTCACTGGGATCGTGGGGAC", "Construct (chain)": "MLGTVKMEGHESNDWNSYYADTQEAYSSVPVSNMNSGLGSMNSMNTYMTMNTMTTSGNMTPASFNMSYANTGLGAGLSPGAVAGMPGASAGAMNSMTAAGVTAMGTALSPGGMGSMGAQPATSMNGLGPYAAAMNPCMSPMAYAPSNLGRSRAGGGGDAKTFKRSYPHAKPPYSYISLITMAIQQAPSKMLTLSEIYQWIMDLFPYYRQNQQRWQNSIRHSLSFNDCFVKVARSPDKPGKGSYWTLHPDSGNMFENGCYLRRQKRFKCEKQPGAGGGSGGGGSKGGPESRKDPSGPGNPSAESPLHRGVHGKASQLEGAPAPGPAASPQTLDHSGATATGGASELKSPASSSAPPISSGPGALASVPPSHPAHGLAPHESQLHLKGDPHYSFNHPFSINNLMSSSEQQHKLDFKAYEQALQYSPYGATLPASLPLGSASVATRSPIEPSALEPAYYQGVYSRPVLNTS"}
{"Strand": "AAATAAGGCGCGCGAGAGAGGCCAACACGTCGCGGAGGGAGATGTTGTTATTTTTTGCTGTTGTGCGTCCCTGACGTCACATCCACCTGCTGGGTAATCTACCGGGCTCCCAGAAAAAAAAAATCGCAATTGCCAAAGAATGGGGGGGGGGGTTGGGGGGAGGGATCCAGGGAGGGGGAAGTGAGGGGCGTCC", "normalised bound fraction": "0.233 ratio"}
{"Strand": "ATGGTAGAGGGAGCTGGCCCTGCATACTGGTATCAGCGTAAAGAACAGTCAGGCGTGCCTGTGAGCAAGGCAGGGCCGTGACTCAGACTTCAGTAAACACGAAGTGTGAGTTCAACCCAGAAAAATGCTGTCTCAGGTTTTGCAGACTTGTCAGAAATAAATCACCAACTTTAGGAAGCTTTGGTGCAAGAGC", "normalised bound fraction": "0.0713 ratio"}
{"Strand": "ATCTTCCCCCTCTTCCTTGCCCCACCAGCTCACCTTCCCGGGTATATTGGAGATAGGAAATTAATATAAGCCGGCATTCGTTAACCCTCTTCACGCGCATACTGCTGTTTACTTTGGATGAATCATGGTCCTTTGGCGACGCCAGGCTCCGGGAGAGCAAAGCACCGTGTCAGGGCCATGATCCGGGGTGGCC", "normalised bound fraction": "0.347 ratio"}
{"Strand": "AATATTTCAAACACTACGTACCCCAACTGACATTTGAGTAGCAGTTAAGTTCTTGGAACGCTGCCATGTTACGTAACTTTGATCTAGCTCATTGTAAACAGGATGAAATAGGGCAGTTAAAAGACTAATGGTCAGTGAAATCTACAACAGGAATGGAAAGAATTTTCCCCTTAAAAATTTGGAAATCCTTATT", "normalised bound fraction": "-0.039 ratio"}
{"Strand": "TAGTCCCTCTTTCAAAAAACTTGCTAGATGCAAAACGATAGATATGGATATGGACGTGGACACAGGCCTAGGTATAGACAGATACACTTAATGTAATCTTGCACGTATATACATTCAAGTACTGTTAGGTACTGGGGATCCAAAGGTGGCTTCTATTAACAACAGCAGCCCTTACTCACTGAACATATCCTGT", "normalised bound fraction": "-0.0416 ratio"}
{"Strand": "AAAAGCCAACTAAATATTTATTTCAAAAGTAGTTCATATTACATGTAAAGAATGGTTTAAAAAAAATTCTTACTTAATCCCTGGTTTATGTGAGTAATTTTGAATTCTTAAGAATCCCATTTCCCAAATGGCATCATAATATTTTGTAATCATTTCTTGCCACAGGTCATATATCGTGGATAGTTCTGTATGT", "normalised bound fraction": "0.0173 ratio"}
{"Strand": "CACTGTAAAAACTTAGTCAATTTTTTTTTCTAAGAAAGAAAGTAAAGATAATAAAGACCTGTTACCCAATTCTGAGCAGAAGCTGAGTCACTGTGTAAACACACTTCAACTACCGGCCTGCTTTCTCAAGGGTGAATCAATTGCTTTGAACAATGAATGTACTGAGTTCTTTCCAATTTTATCCTGCAGAATA", "normalised bound fraction": "0.397 ratio"}
{"Strand": "AACTAACTTCTAAAGCTGTTTTGCTCTTCTTTCCTTTTGTCTTTCCTTATCATTTCCTTAAAATGACCTCCTAGATGACCTCCTAGATCCTGCTTGTTTACTTTAAACATTTTCAAGTTGGAATTCAGGATTGACTTCACTTCATTGTTCCCTGAGCAGCTGCCATCCCTGTTCATTTCAGCTTTAGCATTTA", "normalised bound fraction": "0.402 ratio"}
{"data": "Sample 2", "target": "Interferon regulatory factor 3, full length, phosphomimetic (IRF3, Homo sapiens, UniProt Q14653, residues 1-427, S386D/S396D/S398D/S402D/T404D/S405D)", "method": "protein-binding microarray", "form": "double-stranded DNA, one strand shown", "sample": "in vitro", "concentration": "2540 nM top", "notes": "60-bp whole probe", "with": "salmon DNA 0.4 mg/ml", "reference": "random background probes", "reading": "higher = stronger binding", "constant ends, left off below": "GCCTAGCAC … GTCTTGATTCGCTTGACGCTGCTG", "chain of UniProt Q14653 (whole entry, unmodified, looked up)": "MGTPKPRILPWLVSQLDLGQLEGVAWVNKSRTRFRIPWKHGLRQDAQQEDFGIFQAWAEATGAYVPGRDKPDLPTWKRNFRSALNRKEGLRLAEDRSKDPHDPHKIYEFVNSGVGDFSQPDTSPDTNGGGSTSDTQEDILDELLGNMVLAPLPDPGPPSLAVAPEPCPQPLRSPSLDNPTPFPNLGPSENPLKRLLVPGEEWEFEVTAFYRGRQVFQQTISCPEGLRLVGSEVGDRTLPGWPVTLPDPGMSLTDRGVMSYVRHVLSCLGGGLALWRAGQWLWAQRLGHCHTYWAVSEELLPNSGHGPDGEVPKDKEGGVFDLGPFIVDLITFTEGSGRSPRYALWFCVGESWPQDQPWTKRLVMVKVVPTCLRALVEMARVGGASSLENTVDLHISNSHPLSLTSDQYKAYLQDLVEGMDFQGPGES"}
{"Strand": "TCACCTTTTATATTGTAACTGTGCTAG", "fitted relative affinity": "2.91 z-score"}
{"Strand": "TTAGTTCTCAGTTTCGATTAGTGCTAG", "fitted relative affinity": "4.19 z-score"}
{"Strand": "GACGGGATCGACACTGGGGACGTGCTA", "fitted relative affinity": "-0.462 z-score"}
{"Strand": "TCATGTCTGTAGCTCATACTGTGCTAG", "fitted relative affinity": "0.0745 z-score"}
{"Strand": "GACGTACTGGGGACTGGAGACGTGCTA", "fitted relative affinity": "-0.639 z-score"}
{"Strand": "GACGGACTGTGGTATCGGGACGTGCTA", "fitted relative affinity": "-0.101 z-score"}
{"Strand": "TTAGGTACCGGGACTGGGTTAGTGCTA", "fitted relative affinity": "-0.287 z-score"}
{"Strand": "TTATGTTTCGACTATCGGTTAGTGCTA", "fitted relative affinity": "1.98 z-score"}
{"data": "Sample 3", "target": "Histone acetyltransferase KAT6A, winged helix 1, GST fusion (KAT6A, Homo sapiens, UniProt Q92794, residues 1-85)", "method": "protein binding microarray", "form": "double-stranded DNA, one strand shown", "sample": "in vitro", "concentration": "not given", "notes": "8-mer, flanks averaged, mean of 2 arrays, mostly near background", "reference": "not given", "reading": "higher = stronger binding", "Construct (chain)": "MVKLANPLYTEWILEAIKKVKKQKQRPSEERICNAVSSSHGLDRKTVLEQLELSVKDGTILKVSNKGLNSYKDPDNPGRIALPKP"}
{"Strand": "CGAATTCC", "E-score": -0.0191}
{"Strand": "AGGTAATA", "E-score": -0.00181}
{"Strand": "GCCTCACC", "E-score": 0.0993}
{"Strand": "ATCTCAAC", "E-score": -0.112}
{"Strand": "CAAAACTA", "E-score": -0.144}
{"Strand": "ACCGCTTG", "E-score": 0.124}
{"Strand": "ACACGTCT", "E-score": -0.138}
{"Strand": "CTCTCAAA", "E-score": -0.0792}
{"data": "Further values, each from its own experiment"}
{"Molecule": "GSSDFQVHFLK", "target": "HLA class I histocompatibility antigen, C alpha chain, allele C*04:01 (Homo sapiens, UniProt P10321)", "assay": "peptide-MHC binding", "system": "peptide", "setting": "concentration not given", "quantity": "binding", "result": "inactive"}
{"note": "A few entries again (sample 3):"}
{"Strand": "GCCTCACC", "E-score": 0.0993}
{"Strand": "ATCTCAAC", "E-score": -0.112}
